# Experimental data gathered from unrelated publications.
# Lines come from different studies, so protocols differ. Numbers after ± are the reported error.
# Target: Adenosine receptor A3 (ADORA3, Homo sapiens, UniProt P0DMS8)
# Chain of UniProt P0DMS8 (whole entry, looked up): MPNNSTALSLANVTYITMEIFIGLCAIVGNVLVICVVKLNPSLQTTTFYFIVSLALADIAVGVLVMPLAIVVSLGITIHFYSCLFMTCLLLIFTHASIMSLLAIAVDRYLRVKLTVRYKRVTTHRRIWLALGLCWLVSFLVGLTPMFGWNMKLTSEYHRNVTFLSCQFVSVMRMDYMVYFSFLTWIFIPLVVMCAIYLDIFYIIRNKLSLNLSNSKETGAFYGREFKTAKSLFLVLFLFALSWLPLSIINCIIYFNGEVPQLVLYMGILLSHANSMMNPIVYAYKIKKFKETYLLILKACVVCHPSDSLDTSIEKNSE
SMILES,test,system,setting,how to read,endpoint,value
Cc1[nH]nc2c1N=C(c1ccccc1Cl)c1cnc(N3CCOCC3)cc1N2,cell-free assay,,10 µM,,inhibition,62%
CO[C@@H](C)c1c(NC(=O)Nc2cnc(-n3nccn3)c(C(F)(F)F)c2)cnc2sc(C)nc12,"ligand displacement, radioligand",,10 µM,,inhibition,19.5%
CCCC(CCC)c1nc2c(Nc3ccc(C#CCCCCCCCCCN4CCCCC4)cc3)nc3ccccc3c2n1Cc1ccccc1,"cAMP inhibition, ago-PAM",HEK293 expressing ADORA3,"10 µM, no orthosteric agonist",baseline: NECA,Emax,32 ± 1.3%
CCC(=O)N(C)c1ccc(Cl)c(Cl)c1,"ligand displacement, radioligand",,10 µM,,inhibition,< 10%
CC(=O)c1cnc(N)nc1N1CC[C@H]1c1nn2ccc(Cl)c2c(=O)n1-c1ccccc1,"ligand displacement, radioligand",,10 µM,,inhibition,32%
O=C(O)COc1cccc(NC(=O)c2cc(-c3cccc(F)c3)ccc2F)c1,"ligand displacement, radioligand",,10 µM,,inhibition,11%
Cn1ccc2cc(-n3c(=O)[nH]c4sc5c(c4c3=O)CCCC5)ccc21,"cell-free assay, radioligand",,10 µM,,inhibition,7%
CNC(=O)C[C@H](Cc1ccc(C#N)cc1)NC(=O)c1cc(-c2ccc(CN[C@H](C)c3ccc(C)cc3)o2)ccc1Cl,"agonist response, antagonist",human cells,"10 µM, A3 antagonist",,inhibition,-9%
O=C1c2sc(-c3ccc(N4CCC(F)C4)nc3F)nc2CCN1c1cccnc1 (stereo not drawn),"ligand displacement, radioligand",,1 µM,,inhibition,13%

# A few entries again:
SMILES,test,system,setting,how to read,endpoint,value
O=C(O)COc1cccc(NC(=O)c2cc(-c3cccc(F)c3)ccc2F)c1,"ligand displacement, radioligand",,10 µM,,inhibition,11%
